Assay results of several laboratories.
Compare with care: the assays were run in different laboratories. “And” joins repeats or separate records; there may be more than shown. ± marks the error that the study gave.
Chain of UniProt P20813 (whole entry, looked up): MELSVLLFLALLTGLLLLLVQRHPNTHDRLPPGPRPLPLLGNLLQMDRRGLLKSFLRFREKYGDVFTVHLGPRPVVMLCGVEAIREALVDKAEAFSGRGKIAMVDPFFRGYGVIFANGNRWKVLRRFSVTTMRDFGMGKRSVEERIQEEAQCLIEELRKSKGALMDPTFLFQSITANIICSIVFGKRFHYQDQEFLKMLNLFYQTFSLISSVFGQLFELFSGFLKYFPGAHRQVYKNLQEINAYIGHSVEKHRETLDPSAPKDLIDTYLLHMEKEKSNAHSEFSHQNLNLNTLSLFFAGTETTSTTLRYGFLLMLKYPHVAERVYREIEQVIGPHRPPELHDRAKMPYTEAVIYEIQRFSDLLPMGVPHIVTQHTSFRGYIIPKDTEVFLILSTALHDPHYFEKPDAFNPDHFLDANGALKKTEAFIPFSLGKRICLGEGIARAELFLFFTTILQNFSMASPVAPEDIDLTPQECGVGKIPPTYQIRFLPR
Chain of UniProt P22309 (whole entry, looked up): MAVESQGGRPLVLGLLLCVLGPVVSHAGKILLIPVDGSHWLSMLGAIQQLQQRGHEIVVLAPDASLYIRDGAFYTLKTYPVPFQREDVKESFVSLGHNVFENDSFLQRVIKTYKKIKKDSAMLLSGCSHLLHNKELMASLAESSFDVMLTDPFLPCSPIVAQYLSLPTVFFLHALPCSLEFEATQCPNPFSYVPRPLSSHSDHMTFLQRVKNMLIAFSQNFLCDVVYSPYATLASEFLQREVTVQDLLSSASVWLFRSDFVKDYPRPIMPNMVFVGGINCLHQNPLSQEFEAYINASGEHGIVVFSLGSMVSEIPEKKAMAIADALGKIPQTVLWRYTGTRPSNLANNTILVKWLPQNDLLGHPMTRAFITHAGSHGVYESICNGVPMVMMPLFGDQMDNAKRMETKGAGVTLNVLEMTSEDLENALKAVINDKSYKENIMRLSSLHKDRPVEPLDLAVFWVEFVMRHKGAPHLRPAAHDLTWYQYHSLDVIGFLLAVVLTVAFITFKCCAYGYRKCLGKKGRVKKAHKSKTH
Chain of UniProt P08684 (whole entry, looked up): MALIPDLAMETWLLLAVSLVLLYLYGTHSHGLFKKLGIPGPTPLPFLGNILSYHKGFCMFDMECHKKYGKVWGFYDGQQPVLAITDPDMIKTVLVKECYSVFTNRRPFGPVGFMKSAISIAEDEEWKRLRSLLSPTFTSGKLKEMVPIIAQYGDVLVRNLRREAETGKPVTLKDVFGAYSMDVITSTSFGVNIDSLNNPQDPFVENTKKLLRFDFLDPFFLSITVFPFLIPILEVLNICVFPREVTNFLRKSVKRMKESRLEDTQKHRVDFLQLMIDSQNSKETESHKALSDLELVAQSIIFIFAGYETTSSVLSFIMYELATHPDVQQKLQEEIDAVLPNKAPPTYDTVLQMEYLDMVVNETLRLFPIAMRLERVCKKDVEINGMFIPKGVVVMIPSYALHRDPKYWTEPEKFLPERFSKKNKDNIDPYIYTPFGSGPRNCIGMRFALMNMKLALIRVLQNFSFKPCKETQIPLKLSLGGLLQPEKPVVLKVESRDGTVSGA

`O=C1c2ccccc2C(=O)c2ccccc21` has a cell viability of 39.4 ± 4.3% (HepaRG co-cultured with HK-2; MTT; 266.67 µM, 24 h; baseline: untreated control).
`CN[C@@]1(c2ccccc2Cl)CCCCC1=O` has an inhibition of -3% (UGT1A1 (Homo sapiens, UniProt P22309); enzyme activity; 30 µM).
For `Cc1ncc2n1-c1ccc(Cl)cc1C(c1ccccc1F)=NC2`, the AUC(0-t) was 21.1 ng·h/mL (Cytochrome P450 3A4 (CYP3A4, Homo sapiens, UniProt P08684); human, plasma; oral, 2 mg, day 1, alone, arithmetic mean).
For `CCc1ccc(CC/C=C/c2ccc3c(c2)C(=O)CC3)cc1`, “AST serum activity” read 107 U/L (Sprague-Dawley rat, female; oral, 120 mg/kg/day, 14 days).
The survival of `OC(CCN1CC=C(c2ccc(F)cc2)CC1)c1ccc(F)c2ccccc12` (centres unmarked) is reported as 77.6% (Salmonella typhimurium; SOS/umu test; TA1535/pSK1002; 0.125 mg/mL, 4 h, without S9, lower range).
`CC(=O)OC[C@H]1O[C@@H](Oc2cc(O)cc3cc4oc(C)cc(=O)c4c(O)c23)[C@H](O)[C@@H](O)[C@@H]1O` has a cell viability of 119 ± 14.3% (HepaRG co-cultured with HK-2; MTT; 33.33 µM, 24 h; baseline: untreated control).
`C=CCN1CC[C@]23c4c5ccc(O)c4O[C@H]2C(=O)CC[C@@]3(O)[C@H]1C5` has a viability of 99% (MCF7; MTT; 100 µM, 72 h, 10% FBS).
`O=c1ccc2ccccc2o1` gave a chance response of 0.01% (NHEK; cell count; concentration not given, 24 h, GSH, ROS, ATP, MMP panel).
For `COc1cccc(-c2n[nH]c(SCc3ccccn3)n2)c1OC`, “revertant colonies per plate” read 25 (Escherichia coli; Ames test, plate incorporation; WP2 uvrA; 5.0 mg/plate, without S9).
With `[Cl-].[Cl-].[Pt+2].[Ru+2].c1ccc(-c2nccnc2-c2ccccn2)nc1.c1cnc2c(c1)ccc1cccnc12.c1cnc2c(c1)ccc1cccnc12` the hatching rate was 0% (Danio rerio; embryos; 90 µM, 48 h).
For `COc1cc2c(Oc3ccc4[nH]c(C)cc4c3F)ccnc2cc1OCC1(N)CC1`, “grade 3 ALP elevation” read 0% (paediatric recurrent refractory sarcoma; 10 mg).
The induction factor of `O=[N+]([O-])c1ccc(N2CCN(CCC(O)c3ccc(F)cc3)CC2)c(C(F)(F)F)c1` (centres unmarked) is reported as 0.7 (Salmonella typhimurium; genotoxicity, SOS/umu test; TA1535/pSK1002; 0.004 mg/mL, 4 h, without S9, lower range).
With `COc1ccc2c(c1OC)C(=O)c1c(cc(C)c(O)c1OC)C2=O` the cell viability was 76.3 ± 4.16% (HK-2 co-cultured with HepaRG; MTT; 33.33 µM, 48 h; baseline: untreated control).
`COc1cc2ncnc(Nc3cccc(Cl)c3)c2cc1OC` has a viability of 1.84% and 4.05% and 4.89% (HaCaT; 100 µM, 60 h).
With `CN/C(=N\[N+](=O)[O-])NCc1cnc(Cl)s1` the concentration was 0.05 mg/kg dry soil (soil; 56 days, nominal 0.12).
For `Cc1cc2c(c(O)c1O)C(=O)c1c(O)cc(O)cc1C2=O`, the cell viability was 73.4 ± 15.4% (HepaRG co-cultured with HK-2; MTT; 133.33 µM, 48 h; baseline: untreated control).
`CC1(C)[C@H](C=C(Cl)Cl)[C@H]1C(=O)OCc1cccc(Oc2ccccc2)c1`: “relative enzyme contribution” 50.2% (human microsomal CES1; IVIVE from expressed enzymes; human, 5 years old, expressed human CES1; 0.1 µM; baseline: total hepatic CLint in vivo).
Under “half-life at steady state”, `C[C@]1(CO)Cc2ncn(-c3ccc(C#N)c(Cl)c3)c2C(=O)O1` is recorded as 6.2 h (healthy Japanese adults, plasma; 40 mg once daily, multiple dose).
With `CO[C@H]1C[C@@H]2CC[C@@H](C)[C@@](O)(O2)C(=O)C(=O)N2CCCC[C@H]2C(=O)O[C@H]([C@H](C)C[C@@H]2CC[C@@H](OC(=O)NCCOCCOCCOCCOCCOCCOCCOCCOCCC(=O)N3CCc4cc(Cn5nc(-c6ccc7oc(N)nc7c6)c6c(N)ncnc65)ccc4C3)[C@H](OC)C2)C[C@@H](O)[C@H](C)/C=C(\C)[C@@H](O)[C@@H](OC)C(=O)[C@H](C)C[C@H](C)/C=C/C=C/C=C/1C` the diarrhoea incidence was 25% (patients with advanced solid tumours; intravenous, 12 mg weekly, any grade).
`Cc1cc(C(=O)NC(C)(C)COc2cccc3c2C(N)=NS(=O)(=O)N3)cc(C)n1` gave a revertant ratio of 1.1 (Escherichia coli; Ames test, initial; WP2 uvrA; 1.50 µg/plate; baseline: solvent control).
For `CC(=O)N1CCC(C(=O)N2CCN3C(=O)c4cc(-c5ccccc5)ccc4NC(=O)C3C2)CC1` (centres unmarked), “fold increase in revertants” read 1 (Salmonella typhimurium; TA1537; 1581 µg/plate; baseline: vehicle).
The remaining compound of `CC(C)CC(=O)OC[C@H]1O[C@@](C#N)(c2ccc3c(N)ncnn23)[C@H](O)[C@@H]1O` is reported as 97.4 ± 8.2% (Cytochrome P450 2B6 (CYP2B6, Homo sapiens, UniProt P20813); metabolic stability; recombinant enzyme; 1 µM, 30 min).
For `[Cl-].[Cl-].[Pt+2].[Ru+2].c1ccc(-c2nc3cc4ccccc4cc3nc2-c2ccccn2)nc1.c1cnc2c(c1)ccc1cccnc12.c1cnc2c(c1)ccc1cccnc12`, the survival rate was 100% (Danio rerio; embryos; 15 µM, 0 h).

A few entries again:
`Cc1cc(C(=O)NC(C)(C)COc2cccc3c2C(N)=NS(=O)(=O)N3)cc(C)n1` gave a revertant ratio of 1.1 (Escherichia coli; Ames test, initial; WP2 uvrA; 1.50 µg/plate; baseline: solvent control).
`CN[C@@]1(c2ccccc2Cl)CCCCC1=O` has an inhibition of -3% (UGT1A1 (Homo sapiens, UniProt P22309); enzyme activity; 30 µM).
